Assay results pooled from the literature.
Lines come from different studies, so protocols differ.
Organism: Escherichia coli

CC[C@H](C)[C@H](NC(=O)[C@@H]1CCCN1C(=O)CNC(=O)[C@H](CC(C)C)NC(=O)[C@H](CCCCN)NC(=O)[C@H](CCCNC(=N)N)NC(=O)[C@H](Cc1c[nH]c2ccccc12)NC(=O)[C@H](C)NC(=O)[C@H](CC(N)=O)NC(=O)[C@H](CCCCN)NC(=O)[C@H](CC(C)C)NC(=O)[C@H](CCCCN)NC(=O)[C@H](CC(N)=O)NC(=O)[C@H](CCCNC(=N)N)NC(=O)[C@H](C)NC(=O)[C@H](CCCNC(=N)N)NC(=O)[C@H](CCCNC(=N)N)NC(=O)[C@H](Cc1ccccc1)NC(=O)[C@H](Cc1c[nH]c2ccccc12)NC(=O)CN)C(=O)N[C@H](C(=O)NCC(=O)N1CCC[C@H]1C(=O)N[C@@H](CC(C)C)C(=O)N[C@@H](CC(C)C)C(=O)N[C@H](C(=O)N[C@@H](CCCNC(=N)N)C(=O)O)[C@@H](C)O)C(C)C — MIC (broth microdilution; K88, Mueller-Hinton broth; 37 °C): 2.2 µg/mL
CC[C@H](C)[C@H](NC(=O)[C@H](CCCNC(=N)N)NC(=O)[C@H](CCCCN)NC(=O)[C@H](CC(C)C)NC(=O)[C@H](CC(C)C)NC(=O)CNC(=O)CCCCCNC(=O)CCCC[C@@H]1SC[C@@H]2NC(=O)N[C@@H]21)C(=O)N[C@@H](CCCCN)C(=O)N[C@H](C(=O)N[C@@H](CC(C)C)C(=O)N[C@@H](CC(C)C)C(N)=O)[C@@H](C)O — MIC (broth microdilution; M/14072, Mueller-Hinton broth): 20 µM
CC[C@H](C)[C@H](NC(=O)[C@@H](CCCNC(=N)N)NC(=O)[C@H](CCCNC(=N)N)NC(=O)[C@H](Cc1ccc(O)cc1)NC(=O)[C@H](Cc1c[nH]c2ccccc12)NC(=O)[C@H](CCCNC(=N)N)NC(=O)[C@@H]1CCCN1C(=O)[C@H](CCCNC(=N)N)NC(=O)[C@@H]1CCCN1C(=O)[C@H](CC(C)C)NC(=O)[C@H](Cc1ccc(O)cc1)NC(=O)[C@@H]1CCCN1C(=O)[C@@H]1CCCN1C(=O)[C@H](CCCCN)NC(=O)[C@H](CC(=O)O)NC(=O)[C@@H](N)C(C)C)C(=O)N[C@@H](Cc1ccc(O)cc1)C(=O)N[C@@H](CC(N)=O)C(=O)N[C@H](CCCNC(=N)N)C(N)=O — MIC (broth microdilution; ATCC 25922; 18 h, 37 °C, 25% MHB2): 8 µg/mL
CC(C)C[C@@H](NC(=O)[C@H](NC(=O)[C@@H](CCCCN)NC(=O)[C@@H](CCCCN)NC(=O)[C@@H](CC(C)C)NC(=O)[C@@H](Cc1c[nH]c2ccccc12)NC(=O)[C@@H](CCCCN)NC(=O)[C@@H](CC(C)C)NC(=O)[C@@H](CC(C)C)NC(=O)[C@@H](CCCCN)NC(=O)[C@@H](CCCCN)NC(=O)[C@H](N)C(C)C)C(C)C)C(N)=O — MIC (24 h, 37 °C, Mueller-Hinton broth, no additive): 8 µM
CC(=O)N[C@H](Cc1cccc(F)c1)C(=O)N[C@@H](CCN)C(=O)N[C@H](C(=O)N[C@@H](CCN)C(=O)N[C@H]1CCNC(=O)[C@H]([C@@H](C)O)NC(=O)[C@H](CCN)NC(=O)[C@H](CCN)NC(=O)[C@H](CC(C)C)NC(=O)[C@@H](Cc2ccccc2)NC(=O)[C@H](CCN)NC1=O)[C@@H](C)O — MIC (broth microdilution; mcr-1, colistin-resistant): 16 to 32 µg/mL
CC[C@H](C)[C@H](NC(=O)[C@@H](CCCNC(=N)N)NC(=O)[C@H](CCCNC(=N)N)NC(=O)[C@@H]1CCCN1C(=O)[C@@H]1CCCN1C(=O)[C@H](CCCNC(=N)N)NC(=O)[C@@H]1CCCN1C(=O)[C@H](CCCNC(=N)N)NC(=O)[C@@H]1CCCN1C(=O)[C@H](CC(C)C)NC(=O)[C@H](Cc1ccc(O)cc1)NC(=O)[C@H](Cc1c[nH]cn1)NC(=O)[C@@H]1CCCN1C(=O)[C@H](CCCCN)NC(=O)[C@H](CC(=O)O)NC(=O)[C@@H](N)C(C)C)C(=O)N[C@@H](Cc1ccc(O)cc1)C(=O)N[C@@H](CC(N)=O)C(=O)N[C@H](CCCNC(=N)N)C(N)=O — MIC (broth microdilution; BW25113; 18 h, 37 °C, 25% MHB2): 8 µg/mL
CC(C)C[C@@H]1NC(=O)[C@H](CCCCN)NC(=O)CNC(=O)[C@H]2CCCN2C(=O)[C@H](CCCCN)NC(=O)[C@H](CC(C)C)NC(=O)[C@H](CCCCN)NC(=O)C2CCC=CCCC(NC(=O)[C@H](CCCCN)NC1=O)C(=O)N[C@@H](CCCCN)C(=O)NC(C(N)=O)CCC=CCCC(N)C(=O)N[C@@H](CCCCN)C(=O)N2 (stereo partly shown) — MIC (broth microdilution; ATCC 25922, Mueller-Hinton broth; 18 h, 37 °C): 32 µM
CC[C@H](C)[C@H](NC(=O)[C@@H](CCCNC(=N)N)NC(=O)[C@H](CCCNC(=N)N)NC(=O)[C@H](CC(N)=O)NC(=O)[C@H](Cc1c[nH]c2ccccc12)NC(=O)[C@H](CCCNC(=N)N)NC(=O)[C@@H]1CCCN1C(=O)[C@H](CCCNC(=N)N)NC(=O)[C@@H]1CCCN1C(=O)[C@H](CC(C)C)NC(=O)[C@H](Cc1ccc(O)cc1)NC(=O)[C@@H]1CCCN1C(=O)[C@@H]1CCCN1C(=O)[C@H](CCCCN)NC(=O)[C@H](CC(=O)O)NC(=O)[C@@H](N)C(C)C)C(=O)N[C@@H](Cc1ccc(O)cc1)C(=O)N[C@@H](CC(N)=O)C(=O)N[C@H](CCCNC(=N)N)C(N)=O — MIC (broth microdilution; ATCC 25922; 18 h, 37 °C, 25% MHB2): 8 µg/mL
CC[C@H](C)[C@H](NC(=O)CNC(=O)[C@H](CCC(=O)O)NC(=O)[C@H](CO)NC(=O)[C@@H](NC(=O)[C@H](CCCNC(=N)N)NC(=O)[C@H](CCCCN)NC(=O)[C@H](CCCCN)NC(=O)[C@H](C)NC(=O)[C@H](CO)NC(=O)[C@H](CC(N)=O)NC(=O)[C@H](CCC(=O)O)NC(=O)[C@H](CC(C)C)NC(=O)[C@H](CCCCN)NC(=O)[C@H](CCCCN)NC(=O)[C@H](C)NC(=O)[C@@H](NC(=O)[C@H](CCCCN)NC(=O)[C@H](CO)NC(=O)[C@H](CC(C)C)NC(=O)[C@H](Cc1c[nH]c2ccccc12)NC(=O)[C@@H](N)CO)[C@@H](C)O)[C@@H](C)CC)C(=O)N[C@@H](C)C(=O)N[C@H](C(=O)N[C@@H](C)C(=O)N[C@H](C(=O)N[C@@H](CCC(N)=O)C(=O)NCC(=O)NCC(=O)N1CCC[C@H]1C(=O)N[C@@H](CCCNC(=N)N)C(=O)O)[C@@H](C)CC)[C@@H](C)CC — MIC (25922, Mueller-Hinton broth; 18 to 24 h, 37 °C): 2 µg/mL
CC[C@H](C)[C@H](NC(=O)[C@@H](CCCNC(=N)N)NC(=O)[C@H](CCCNC(=N)N)NC(=O)[C@H](CCCNC(=N)N)NC(=O)[C@H](Cc1c[nH]c2ccccc12)NC(=O)[C@H](CCCNC(=N)N)NC(=O)[C@@H]1CCCN1C(=O)[C@H](CCCNC(=N)N)NC(=O)[C@@H]1CCCN1C(=O)[C@H](CC(C)C)NC(=O)[C@H](Cc1ccc(O)cc1)NC(=O)[C@@H]1CCCN1C(=O)[C@@H]1CCCN1C(=O)[C@H](CCCCN)NC(=O)[C@H](CC(=O)O)NC(=O)[C@@H](N)C(C)C)C(=O)N[C@@H](Cc1ccc(O)cc1)C(=O)N[C@@H](CC(N)=O)C(=O)N[C@H](CCCNC(=N)N)C(N)=O — MIC (broth microdilution; MC4100; 18 h, 37 °C, 25% MHB2): 8 µg/mL
CC[C@H](C)[C@H](NC(=O)[C@@H](NC(=O)[C@H](CCCCN)NC(=O)[C@H](CCCCN)NC(=O)[C@@H](NC(=O)[C@H](Cc1c[nH]c2ccccc12)NC(=O)[C@H](CCCCN)NC(=O)[C@@H](NC(=O)[C@H](CC(C)C)NC(=O)[C@H](CCCCN)NC(=O)[C@H](CCCCN)NC(=O)[C@@H](N)C(C)C)[C@@H](C)CC)[C@@H](C)CC)C(C)C)C(N)=O — MIC (24 h, 37 °C, Mueller-Hinton broth, human serum 10%): 32 µM
CO[C@@H](C(N)=O)[C@H](NC(=O)c1ccc(NC(=O)[C@@H](N)Cc2ccccc2)cc1)C(=O)Nc1ccc(C(=O)Nc2ccc(C(=O)Nc3ccc(C(=O)O)c(O)c3OC(C)C)c(O)c2OC(C)C)cc1 — MIC (MerR family clone; 16 h, 37 °C): > 2 µg/mL
CC(C)C[C@@H](NC(=O)[C@@H](CC(C)C)NC(=O)[C@@H](CCCCN)NC(=O)[C@@H](CCCCNC(=O)[C@@H](CC(C)C)NC(=O)[C@@H](CC(C)C)NC(=O)[C@@H](CCCCNC(=O)[C@@H](CC(C)C)NC(=O)[C@@H](CCCCN)NC(=O)[C@@H](CCCCNC(=O)[C@@H](CC(C)C)NC(=O)[C@H](N)CCCCN)NC(=O)[C@@H](CC(C)C)NC(=O)[C@H](N)CCCCN)NC(=O)[C@@H](CC(C)C)NC(=O)[C@@H](CCCCN)NC(=O)[C@@H](CCCCNC(=O)[C@@H](CC(C)C)NC(=O)[C@H](N)CCCCN)NC(=O)[C@@H](CC(C)C)NC(=O)[C@H](N)CCCCN)NC(=O)[C@@H](CC(C)C)NC(=O)[C@@H](CC(C)C)NC(=O)[C@@H](CCCCNC(=O)[C@@H](CC(C)C)NC(=O)[C@@H](CCCCN)NC(=O)[C@@H](CCCCNC(=O)[C@@H](CC(C)C)NC(=O)[C@H](N)CCCCN)NC(=O)[C@@H](CC(C)C)NC(=O)[C@H](N)CCCCN)NC(=O)[C@@H](CC(C)C)NC(=O)[C@@H](CCCCN)NC(=O)[C@@H](CCCCNC(=O)[C@@H](CC(C)C)NC(=O)[C@H](N)CCCCN)NC(=O)[C@@H](CC(C)C)NC(=O)[C@H](N)CCCCN)C(N)=O — MIC (broth microdilution; Klebsiella pneumoniae blaOXA-48; 20 h, 37 °C): 16 µg/mL
C=CCO/N=C(\C(=O)N[C@@H]1C(=O)N(OS(=O)(=O)O)C1(C)C)c1csc(N)n1 — MIC (agar dilution; 08-85, mcr-1): 0.5 µg/mL
CC[C@H](C)[C@H](NC(=O)[C@H](Cc1c[nH]c2ccccc12)NC(=O)c1ccccc1)C(=O)N[C@@H](CCCNC(=N)N)C(=O)N[C@@H](Cc1ccc(O)cc1)C(=O)N[C@@H](CCCCN)C(=O)N[C@@H](Cc1c[nH]c2ccccc12)C(=O)N[C@H](CCCNC(=N)N)C(=O)N[C@@H](CCCNC(=N)N)C(=O)N[C@@H](CCCCN)C(=O)N[C@@H](CCCCN)C(=O)N[C@H](C(=O)N[C@@H](CCCNC(=N)N)C(=O)N[C@@H](Cc1ccc(O)cc1)C(=O)N[C@@H](Cc1c[nH]c2ccccc12)C(=O)N[C@H](C(=O)NCC(=O)N1CCC[C@H]1C(N)=O)[C@@H](C)O)C(C)C — MIC (DH5α; 16 h, 37 °C): 25 µM
Cc1ccc2nc(C)c(C(=O)C(=O)NCc3ccccc3)n2c1 — MIC (microbial growth, broth dilution): > 128 µM
CC1(C)[C@H](NC(=O)/C(=N\OCC(=O)N2CCC(C(=O)O)C2)c2nsc(N)n2)C(=O)N1OS(=O)(=O)O (stereo partly shown) — MIC (agar dilution; 08-85, mcr-1): > 64 µg/mL
CC[C@H](C)[C@H](NC(=O)[C@@H](CCCNC(=N)N)NC(=O)[C@H](CCCNC(=N)N)NC(=O)[C@@H]1CCCN1C(=O)[C@@H]1CCCN1C(=O)[C@H](CCCCNC(=N)N)NC(=O)[C@@H]1CCCN1C(=O)[C@H](CCCNC(=N)N)NC(=O)[C@@H]1CCCN1C(=O)[C@H](CC(C)C)NC(=O)[C@H](Cc1ccc(O)cc1)NC(=O)[C@@H]1CCCN1C(=O)[C@@H]1CCCN1C(=O)[C@H](CCCCN)NC(=O)[C@H](CC(=O)O)NC(=O)[C@@H](N)C(C)C)C(=O)N[C@@H](Cc1ccc(O)cc1)C(=O)N[C@@H](CC(N)=O)C(=O)N[C@H](CCCNC(=N)N)C(N)=O — MIC (broth microdilution; BW25113; 18 h, 37 °C, 25% MHB2): 8 µg/mL
CSCC[C@H](NC=O)C(=O)N[C@@H](CCCNC(=N)N)C(=O)N[C@H](C(=O)NCC(=O)N[C@@H](CC(N)=O)C(=O)N[C@@H](C)C(=O)N[C@@H](CC(N)=O)C(=O)NCC(=O)N1CCN(c2cc3c(cc2F)c(=O)c(C(=O)O)cn3C2CC2)CC1)[C@@H](C)O — MIC (multistep resistance selection; K-12 MG1655; day 2): 1.56 µM

Some of these lines once more:
CC[C@H](C)[C@H](NC(=O)[C@@H](CCCNC(=N)N)NC(=O)[C@H](CCCNC(=N)N)NC(=O)[C@@H]1CCCN1C(=O)[C@@H]1CCCN1C(=O)[C@H](CCCCNC(=N)N)NC(=O)[C@@H]1CCCN1C(=O)[C@H](CCCNC(=N)N)NC(=O)[C@@H]1CCCN1C(=O)[C@H](CC(C)C)NC(=O)[C@H](Cc1ccc(O)cc1)NC(=O)[C@@H]1CCCN1C(=O)[C@@H]1CCCN1C(=O)[C@H](CCCCN)NC(=O)[C@H](CC(=O)O)NC(=O)[C@@H](N)C(C)C)C(=O)N[C@@H](Cc1ccc(O)cc1)C(=O)N[C@@H](CC(N)=O)C(=O)N[C@H](CCCNC(=N)N)C(N)=O — MIC (broth microdilution; BW25113; 18 h, 37 °C, 25% MHB2): 8 µg/mL
